# Results gathered from unrelated publications.
# Each line is one published result; not all experiments were run side by side. Numbers after ± are the reported error.
SMILES,cell line,assay,system,conditions,scale,quantity,result
COc1ccc(-c2coc3c(CC=C(C)C)c(O)c(CC=C(C)C)c(O)c3c2=O)cc1O,SW480,"cell growth or viability, MTT",,6.25 µg/mL,,viability,92.3%
Cc1nc([C@@H](NC(=O)c2ccc(-c3ccc(Cl)cc3)[nH]2)[C@H]2CCCCN2)sc1CO,MT2,"cell growth or viability, XTT",,,,CC50,~30 µM
Cc1ccccc1C(c1c[nH]c(=O)[nH]c1=O)c1c[nH]c(=O)[nH]c1=O,Mo7e,,,1 µg/mL,,cytotoxicity,not toxic
Cn1cc[n+](C)[c]1[Ir-3]123([c]4n(C)cc[n+]4C)[n]4c5ccc4C(c4c(F)c(F)c(F)c(F)c4F)=C4C=CC(=[N+]41)C(c1c(F)c(F)c(F)c(F)c1F)=c1ccc([n]12)=C(c1c(F)c(F)c(F)c(F)c1F)C1=[N+]3C(=C5c2c(F)c(F)c(F)c(F)c2F)C=C1.O=S(=O)([O-])C(F)(F)F,NCI-H460,ICP-MS,,"1 µM, 2 h",,cellular uptake,131 ± 10.2 µg iridium/g protein
O=C(Nc1ccc2c(c1)CN(c1ccc(F)c(F)c1)C2=O)N1CCN(c2ccc(Cl)cc2)CC1,primary peritoneal mouse macrophages,cytotoxicity,5% fetal calf serum,,,IC50,> 64 µM
O=C(O)C1OC(Oc2c(-c3ccccc3)oc3ccc(O)cc3c2=O)C(O)C(O)C1O (centres unmarked),HeLa-UGT1A9 cells,item: 3-O-glucuronide,,"0.625 µM aglycone loading, end of excretion",,intracellular glucuronide concentration,115 ± 5.2 µM
O=C(CCC(=O)OCCNC(=O)[C@@H](Cc1ccccc1)NC(=O)[C@@H](Cc1ccccc1)NC(=O)CCNc1ccc([N+](=O)[O-])c2nonc12)NCCS(=O)(=O)O,HeLa,,,"200 µM, 24 h, after one PBS wash",,intracellular concentration,1.4 mM
O=C(O)C1OC(Oc2ccc3c(=O)cc(-c4ccccc4)oc3c2)C(O)C(O)C1O (centres unmarked),HeLa-UGT1A9 cells,,,"20 µM aglycone loading, end of excretion",,intracellular glucuronide concentration,179 ± 17.5 µM
O=C(/C=C/c1ccccc1)c1ccccc1O,K562 transfected,,,"concentration not given, with: TNF-alpha",,cytotoxicity,toxic
O=C(O)C1OC(Oc2ccccc2-c2cc(=O)c3ccccc3o2)C(O)C(O)C1O (centres unmarked),HeLa-UGT1A9 cells,,,"15 µM aglycone loading, end of excretion",,intracellular glucuronide concentration,58.1 ± 11.6 µM
CC1(C)CCC2(CO)C(=C3C=CC4[C@@]5(C)CCC(O)[C@@](C)(CO)C5CC[C@@]4(C)[C@]3(C)C[C@H]2O)C1 (some centres unmarked),Caco-2 monolayer,Caco-2 bidirectional transport,,"10 µM, 3 h, 37 °C",,recovery basolateral to apical,86.4%
O=C(O)C1OC(Oc2ccc3oc(-c4ccccc4)cc(=O)c3c2)C(O)C(O)C1O (centres unmarked),HeLa-UGT1A9 cells,,,"20 µM aglycone loading, end of excretion",,intracellular glucuronide concentration,111 ± 15.8 µM
CC1(C)CCC23COC4(C=CC5C6(C)CCC(O)C(C)(CO)C6CCC5(C)C4(C)CC2O)C3C1 (centres unmarked),Caco-2 monolayer,Caco-2 bidirectional transport,,"10 µM, 3 h, 37 °C",,Papp apical to basolateral,8.54 ± 1.47 ×10⁻⁶ cm/s
CCCCn1cc(C(=O)O)c(=O)c2cc(F)c(N)c([N+](=O)[O-])c21,SW480,"cell growth or viability, SRB",,,,IC50,670 µM
COc1ccc(S(=O)(=O)N(CC(=O)O)c2c(C)c(C)c(N(CC(=O)O)S(=O)(=O)c3cccnc3)c(C)c2C)cc1,H9c2,MTS,,"up to 50 µM, 24 h",,cytotoxicity,not toxic
Cc1cc(O)cc(O)c1C(=O)c1c2c3c(c(O)cc(C)c3oc1=O)C(=O)c1c(O)cc(O)cc1-2,Caco-2 monolayer,,,"50 to 400 µM, 180 min, pH 7.4, basolateral to apical",,Papp,0.008 to 0.138 ×10⁻⁶ cm/s
O=C(O)C1OC(Oc2cccc(-c3cc(=O)c4ccccc4o3)c2)C(O)C(O)C1O (centres unmarked),HeLa-UGT1A9 cells,,,"15 µM aglycone loading, end of excretion",,intracellular glucuronide concentration,56.7 ± 4.9 µM
O=C(/C=C/c1ccccc1O)c1ccccc1,K562 transfected,,,"concentration not given, with: TNF-alpha",,cytotoxicity,toxic
Cc1ccc(C2=C3C=CC4=[N+]3[Ir-3]35([c]6n(C)cc[n+]6C)([c]6n(C)cc[n+]6C)[n]6c2ccc6C(c2ccc(C)cc2)=C2C=CC(=[N+]23)C(c2ccc(C)cc2)=c2ccc([n]25)=C4c2ccc(C)cc2)cc1.O=S(=O)([O-])C(F)(F)F,NCI-H460,ICP-MS,,"1 µM, 2 h",,cellular uptake,148 ± 6.4 µg iridium/g protein
O=C(CCC(=O)NCCS(=O)(=O)O)NCCNC(=O)[C@@H](Cc1ccccc1)NC(=O)[C@@H](Cc1ccccc1)NC(=O)CCNc1ccc([N+](=O)[O-])c2nonc12,HeLa,,,"200 µM, 24 h",,intracellular concentration,0.8 mM
CC12CCCC(n3cc(C(=O)N4CCCC(N)C4)nn3)(C1)C1CC(C)(C)C1CC2 (centres unmarked),HT-29,,,"0.5 µM, 72 h, without Z-VAD-FMK pretreatment",,viability,73.6%
CCC(=O)N(C)c1ccc(Cl)c(Cl)c1,CHO-WBL,,,"0.032 mg/mL, 3 h, with S9 activation",,cells with multiple aberrations,0%
CC(C)=CCc1c2c(c(O)c3c(=O)c(-c4ccc(O)cc4)coc13)CC(C(C)(C)O)O2 (centres unmarked),SW480,"cell growth or viability, MTT",,50 µg/mL,,viability,8.07%
CC(=O)N[C@H](C(=O)N[C@H](C(=O)N[C@@H](CCCNC(=N)N)C(=O)N1Cc2ccccc2C[C@H]1C(=O)N[C@@H](Cc1ccccc1)C(N)=O)C1CCCCC1)C(C)C,human PBMC,"Bio-Plex multiplex, item: G-CSF",,"500 µg/mL, 24 h",,cytokine level,6 ± 7.6 pg/mL
O=c1[nH]cc(C(c2cccc(C(F)(F)F)c2)c2c[nH]c(=O)[nH]c2=O)c(=O)[nH]1,Mo7e,,,1 µg/mL,,cytotoxicity,not toxic
CC(C)NC(=O)NNS(=O)(=O)c1ccc2c(c1)n(C)c(=O)c(=O)n2C,hTERT-RPE1,"cell viability, MTT",,concentration not given,,inhibition,10%
CCC(C)C(N)C(=O)OC(C)OC(=O)C1=CC(N=C(N)N)C(NC(C)=O)C(C(O)C(O)CO)O1 (mixture of isomers),Caco-2 monolayer,,,apical to basolateral,baseline: zanamivir,apparent permeability ratio,> 2 fold
COc1cccc2c1C(=O)c1c(O)c3c(c(O)c1C2=O)CC(O)(C(=O)CO)CC3OC1CC(NC(=O)C[C@H](N)C(=O)O)C(O)C(C)O1 (some centres unmarked),HepG2 (LAT1-positive),HPLC,,"50 µg/mL, 2 h, serum-free medium",,cellular uptake,2.63 ± 0.171 µg/mL
O=C(O)C1OC(Oc2c(-c3cccc(O)c3)oc3ccccc3c2=O)C(O)C(O)C1O (centres unmarked),HeLa-UGT1A9 cells,item: 3-O-glucuronide,,"0.625 µM aglycone loading, end of excretion",,intracellular glucuronide concentration,15.4 ± 0.42 µM
COc1cc2c(cc1O)[C@]1(O)C(=O)c3c(O)cc4c(c3O[C@@H]1CO2)C=CC(C)(C)O4,SW480,"cell growth or viability, MTT",,25 µg/mL,,viability,83.3%
CC(C)(C)NC(=O)[C@@H]1C[C@@H]2CCCC[C@@H]2CN1C[C@@H](OC(=O)CCC(=O)OC[C@H](O)[C@H]1OC(=O)C(O)=C1O)[C@H](Cc1ccccc1)NC(=O)[C@H](CC(N)=O)NC(=O)c1ccc2ccccc2n1,Caco-2 monolayers,,,"25 µM, 3 h",baseline: Papp B-A over Papp A-B,efflux ratio,1.62
Cc1c(NC(=O)c2cccn(-c3ccc(F)cc3)c2=O)ccc(Oc2ccnc(NC(=O)C3CC3)c2)c1C,L929,western blot,,"3 h, 10% FBS",,lowest concentration with caspase cleavage,> 50 µM
Cc1c(C)c(C)[c-](C)c1C.O=C1c2cccc[n+]2[Ir]([Cl])[N]1c1ccccc1,NIH3T3,ICP-MS,,"10 µM, 24 h",,cellular iridium uptake,46 ng/10⁶ cells
CC(C)=CCc1cc(-c2coc3cc(O)c(CC=C(C)C)c(O)c3c2=O)ccc1O,SW480,"cell growth or viability, MTT",,6.25 µg/mL,,viability,127%
OC(Cc1cc(-c2ccc(C(O)C(F)(F)F)s2)sc1-c1ccc(-c2sc(-c3ccc(C(O)C(F)(F)F)s3)cc2CC(O)C(F)(F)F)s1)C(F)(F)F (centres unmarked),primary human fetal cortical neurons,LC-MS/MS,,"4 µM, 2 h",baseline: applied,cellular uptake,10%

# Repeated from above:
SMILES,cell line,assay,system,conditions,scale,quantity,result
COc1cccc2c1C(=O)c1c(O)c3c(c(O)c1C2=O)CC(O)(C(=O)CO)CC3OC1CC(NC(=O)C[C@H](N)C(=O)O)C(O)C(C)O1 (some centres unmarked),HepG2 (LAT1-positive),HPLC,,"50 µg/mL, 2 h, serum-free medium",,cellular uptake,2.63 ± 0.171 µg/mL
O=C(O)C1OC(Oc2c(-c3cccc(O)c3)oc3ccccc3c2=O)C(O)C(O)C1O (centres unmarked),HeLa-UGT1A9 cells,item: 3-O-glucuronide,,"0.625 µM aglycone loading, end of excretion",,intracellular glucuronide concentration,15.4 ± 0.42 µM
COc1cc2c(cc1O)[C@]1(O)C(=O)c3c(O)cc4c(c3O[C@@H]1CO2)C=CC(C)(C)O4,SW480,"cell growth or viability, MTT",,25 µg/mL,,viability,83.3%
CC(C)(C)NC(=O)[C@@H]1C[C@@H]2CCCC[C@@H]2CN1C[C@@H](OC(=O)CCC(=O)OC[C@H](O)[C@H]1OC(=O)C(O)=C1O)[C@H](Cc1ccccc1)NC(=O)[C@H](CC(N)=O)NC(=O)c1ccc2ccccc2n1,Caco-2 monolayers,,,"25 µM, 3 h",baseline: Papp B-A over Papp A-B,efflux ratio,1.62
Cc1c(NC(=O)c2cccn(-c3ccc(F)cc3)c2=O)ccc(Oc2ccnc(NC(=O)C3CC3)c2)c1C,L929,western blot,,"3 h, 10% FBS",,lowest concentration with caspase cleavage,> 50 µM
Cc1c(C)c(C)[c-](C)c1C.O=C1c2cccc[n+]2[Ir]([Cl])[N]1c1ccccc1,NIH3T3,ICP-MS,,"10 µM, 24 h",,cellular iridium uptake,46 ng/10⁶ cells
